Results from different studies.
Numbered parts are unrelated; each lists some results of a single study.

Sample 1
Target: RNA binding protein fox-1 homolog 2, RRM domain, GST-SBP tag (RBFOX2, Homo sapiens, UniProt O43251-10, residues 100-194)
Technique: RNA Bind-n-Seq
Form: RNA
Matrix: in vitro
Concentration: 365 nM
Setting: natural RNA segment, single round, ends assumed
Baseline: no-protein control
Direction: higher = stronger binding
Measurement: RBNS enrichment (R)
All sequences stand within: GGGAGUUCUACAGUCCGACGAUC … UGGAAUUCUCGGGUGCCAA
Construct (chain): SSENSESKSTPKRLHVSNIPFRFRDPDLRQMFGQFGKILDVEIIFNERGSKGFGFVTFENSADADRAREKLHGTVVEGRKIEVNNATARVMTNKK
CACAUUUUGCAUUCUGCAUUGUUGUCUUAGAGCACACACACGUUAGACAGCGGGUUGCAGCCACCCCACACUGACCGGCCGCUGAGGAGCAGAUAACCACUUGUUCUUUA: 1.28
CUGGAACUCAAUCAGUAGAUGCCCAGAGAUGAUGUGCCUGCCUCUGCCGUCCAAUGCUGGGAUUGAAGGUGUGCACAGCCACACCAGCUUAAGGUUUUGUUAAAGAAGAC: 1.36
CCCAGCAUGUACUCACUGUGGGCAGAUGCACCAAUACAUGGUAAUCCUCUUACUCAUUUUAAGACGUAGGAAACUCAAUAUUCUUCUCUAACCAUAUACGAUAGGGCUCU: 8.33
UUGUUUGUUUUUCCUGUUUGGGGGUUUUCUUUGGUUUUUUUGUUUGUUUGUUUCUGUUUUUCUGGAUUUAAAAAAAAAGAAAACCUUGCUUUUAGUGUUUGUACUGCUGC: 14.5
AACAGAGCCAUUUUAGUCUUCAUAGUUAUCUGCUAAGAGAGAUAAUGAGCUGACUGUCUAUUUUAAACUCGAAGGUAAAAAAAUGUAUAUUAUAUUUUUUCACUAUAGGU: 0.389
AGAACGGAACCAAAGCUGGGCACCGACUUCUCAUGGAUGCCAGGAACCUGGUCCUCGGGGAAAAAGAGAAGUCACCUUUGGACCUUCGACCUAGCUUUGUCUUUGCCCCA: 0.926
AAAGGAAAAUACCAGAAUAUCUGGAAAGCUUGAAGUGUAAGAUGGGAUCUCGUUGGGGAAUUGGAUGAAGAAAAGCAGAGCGCCUCUGGUAGGUGACUCUGCAGCCUGCC: 1.71
UCCCUGCACAUUGGAAAUGAAUUACAGGCAGCUGUUCAAACUCUUCAGGCAGGAUUCCUGUGGACUUUGAGAUUCAUGUUACCUCAUCUUCUUUUUUAAACUGUACCCAA: 0.512
UGGUGCUAUCCAAUUCCCAUCACUAGGAGGUGGCUGAGCUUGAGGCUUGCCAGACACAGGAAUGGCCCCGAUUAUGUCACCAAUAUUGUCACAUGUGGGCCAAGAAUAGA: 0.431
CCUUUGGGGACCAGAAGGGGAGAUGUGCUCCCAGAGCCUCUCUGCUGUAAGACCCCAGCUUUUCCUGGAAGAUGGGACUCUGGGGUGUGUGGUGCUCACCAGAGUCAGGC: 0.359
UUUGUGUGGAUUGAGGUGUUCAGAAAUACCAACCAUAAAAAUGUAAUCUAGUUGGCAAAGGUGUGCGCUAAAACACGGAACCGAACAUGCAUUGAUUUGGAUAACUUUUG: 0.434
GGCUCUUGAGACCUGAUGCCCUCCUACCCACAUGGUUCUCCCACUGCCCUGUCUGCUCUGCUGCUACAGAGGGGCAGGGCCUCCCCCAGCCCACGCUUAGGAAUGCUUGG: 0.942

Sample 2
Target: Ras GTPase-activating protein-binding protein 1, full length (G3BP1, Homo sapiens, UniProt Q13283)
Chain of UniProt Q13283 (whole entry, looked up): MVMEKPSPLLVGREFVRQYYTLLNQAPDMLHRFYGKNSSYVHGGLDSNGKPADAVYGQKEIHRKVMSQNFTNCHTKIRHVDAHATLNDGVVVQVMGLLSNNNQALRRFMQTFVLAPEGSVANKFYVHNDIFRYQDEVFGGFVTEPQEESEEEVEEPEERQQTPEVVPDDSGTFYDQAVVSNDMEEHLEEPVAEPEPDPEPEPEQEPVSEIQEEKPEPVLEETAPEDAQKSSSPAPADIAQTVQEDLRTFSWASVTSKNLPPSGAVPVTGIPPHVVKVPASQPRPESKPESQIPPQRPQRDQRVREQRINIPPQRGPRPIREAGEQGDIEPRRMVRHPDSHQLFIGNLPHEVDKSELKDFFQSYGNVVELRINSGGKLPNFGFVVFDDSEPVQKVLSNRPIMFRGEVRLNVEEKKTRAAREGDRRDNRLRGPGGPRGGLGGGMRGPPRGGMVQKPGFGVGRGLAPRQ
Technique: RNA Bind-n-Seq
Form: RNA
Matrix: in vitro
Concentration: 200 nM
Setting: whole 134-nt RNA, ends assumed
With: 150 mM KCl
Baseline: input library
Direction: higher = stronger binding
Measurement: log2 enrichment
All sequences stand within: GGGAGUUCUACAGUCCGACGAUC … UGGAAUUCUCGGGUGUCAAGG
UCCUGUGCUACACAUCGUAUGUACCGAAUCGGGGAAAGGGGUUUGGGGUUUUUUUGGGGAAAGUAUUAUGUUACGCCGUUCGGAUCUGCA: 0.752
UGUGCGGGAGACAGGCGCCAACGGCACCUCUUUCAGUGUCCGCAAGACAGCCUACUGCGACAUCCACACGCCUCCAGGUUCAGCACGCCG: 0.0888
UGGCCCUGGUGGCAUGCGGGGAGGAAGAGGUGGCCUCAUGGAUCGUGGUGGUCCCGGUGGAAUGUUCAGAGGUGGCCGUGGUGGAGUCAG: 0.102
CCUGUGCUACACAUCGUAUGUACCGAAUCGGGGUUUUUUUGGGGUUUUUUUGGGGUGGGGAAAGUAUUAUGUUACGCCGUUCGGAUCUGC: 0.164
UCCUGUGCUACACAUCGUAUGUACCGAAUCGGGGCCCCCCGGGCCCCCCGGCCCCCCGGAAAGUAUUAUGUUACGCCGUUCGGAUCUGCA: -0.0656
GUCCUGUGCUACACAUCGUAUGUACCGAAUCGGGGCCCCCGGGCCCCCGGGCCCCCGGGAAAGUAUUAUGUUACGCCGUUCGGAUCUGCA: -0.757
UUUCUAGGCAAGAGGAGGAACGACGUAGAAGAGAGGAAGAGAUGAUGAUUCGUCAACGUGAGAUGGAAGAACAAAUGAGGCGCCAAAGAG: 1.22
UCAAGUCCUGUGCUACACAUCGUAUGUACCGAAUCGGGGAAGGGGAAGGAAGGGAAAGUAUUAUGUUACGCCGUUCGGAUCUGCACUUCC: 0.0852
UGGCUGCAGGCGCACCCCGGCAGGAUUUUGCCUCCGCUGUCGCCCCCGCAGCACCGCUACUCGGAGGGCGAGCGGACCUCCCUGGAGAAG: -0.593
UAACUUUAGAGGAUGAUCUGAUGGAUAUGGCAGUGGACGUGGAUUUGGGGAUGGCUAUAAUGGGUAUGGAGGAGGACCUGGAGGUGGCAA: 0.353
UAACUUUAGAGGAGGAUCUGAUGGAUAUGGCAGUGGACGUGGAUUUGGGGAUGGCUAUAAUGGGUAUGGAGGACGACCUGGAGGUGGCAA: 0.345
UUGUUUAGCAAUCAAGGAGACCGCGAAGGCGUACAUUCCCGGGUGUUGCUUCCAGGAGAAACCCUGAACGGAGAGCUCGUCCUCUUACCA: -0.622
UUCCCCACUUCCUUCCCUCCAGUCCCCACUCACUCACAUGCACACACUAACCUUGGAGCCGAUGGGAUUGAGUGACUGGCACUUGGGACC: 1.26
CAAGUCCUGUGCUACACAUCGUAUGUACCGAAUCGGGAAAAGGAAAAGGAAAAGGGAAAGUAUUAUGUUACGCCGUUCGGAUCUGCACUU: -0.885

Sample 3
Target: Histone acetyltransferase KAT6A, winged helix 1, GST fusion (KAT6A, Homo sapiens, UniProt Q92794, residues 1-85)
Technique: protein binding microarray
Form: double-stranded DNA, one strand shown
Matrix: in vitro
Concentration: not given
Setting: 8-mer, flanks averaged, mean of 2 arrays, mostly near background
Baseline: not given
Direction: higher = stronger binding
Measurement: E-score
Residues (chain): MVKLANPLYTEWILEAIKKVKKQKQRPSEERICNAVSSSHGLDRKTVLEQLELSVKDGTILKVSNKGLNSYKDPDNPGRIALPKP
ATATTCTC: -0.213
CGAATGGA: -0.22
GGTACTCA: -0.104
CGCGTGAG: 0.308
GTTAATGA: -0.279
AGATACCG: 0.191
ACAGACCA: -0.301
ACGTGCTC: -0.115
AGGGTAGA: -0.0571
AAAGAGAA: -0.085
CAGTAAGC: -0.0644
CCTGAACG: -0.0821
GAAAGTCA: -0.117
ACGTTGCT: -0.206
TAAAGTTA: -0.0369
GAATGTGC: 0.0964
CAATGGCG: 0.218
AGTTACCA: 0.00879
ACCCCTCC: -0.23
GTAATGTA: 0.0697
CTTCACAA: -0.288
GCAGCGCC: 0.389
AACGGTGC: 0.087

Sample 4
Target: TAR DNA-binding protein 43, full length, His tag (TARDBP, Homo sapiens, UniProt Q13148, residues 1-414)
Technique: RNA Bind-n-Seq
Form: RNA
Matrix: in vitro
Concentration: 20 nM
Setting: 6-mer, flanks averaged, single round
With: 150 mM KCl
Baseline: input library
Direction: higher = stronger binding
Measurement: 6-mer enrichment (R)
UUCUAC: 0.542
AUGGCC: 0.822
GCCCAA: 0.733
CACAGG: 1.14
UGGUGC: 1.29
CUAACG: 0.668
UUAAAU: 0.627
CAGGUA: 0.84
GUGCUG: 1.33
AUUAGG: 0.893
GUUAAU: 0.656
UGUCGC: 0.816
AACCGA: 0.66
CUGAAU: 0.678
UACGAU: 0.599
GUUUUC: 0.615
CCGAAG: 0.893
GGGUAA: 1.99
UGUUUA: 0.695

Sample 5
Target: Interferon regulatory factor 5, full length, phosphomimetic (IRF5, Homo sapiens, UniProt Q13568-2, residues 1-514, S451D/S453D/S456D/S462D)
Technique: protein-binding microarray
Form: double-stranded DNA, one strand shown
Matrix: in vitro
Concentration: 940 nM top
Setting: 60-bp whole probe
With: salmon DNA 0.4 mg/ml
Baseline: random background probes
Direction: higher = stronger binding
Measurement: fitted relative affinity
All sequences stand within: GCCTAGCAC … GTCTTGATTCGCTTGACGCTGCTG
AGAGTCACCCATCTCAACAAGTGCTAG: 0.354 z-score
TTAAGTTTCCTTTTCCTTTAGTGCTAG: 2.52 z-score
TTAGGACTGGACACTGGGTGAGTGCTA: -0.605 z-score
TTAGGTTCCCTTTGCCTTTAGTGCTAG: 0.563 z-score
TTAGATCTCCGTTTCGATTAGTGCTAG: 3.04 z-score
GAAATTCTCATTTCCAATTAGTGCTAG: 1.59 z-score
GACGGACTGGGACTGGGTACGTGCTAG: -0.676 z-score
GGCGGACTGGGTCTCGGGACGTGCTAG: -0.395 z-score
TGTAGTGTGTGTCTGATTATGTGCTAG: 0.64 z-score
TCATTTTTAGAAATTTTTACTGTGCTA: 0.608 z-score
GACGATATCGGGTATCGAGAGGTGCTA: 1.17 z-score
GACGGACTGCTTACCCTGACGTGCTAG: -0.218 z-score
TCACATCTAGTTCTGCTACTGTGCTAG: 0.276 z-score
ACCTATGTGTACCACTAGACGTGCTAG: -0.263 z-score
TTAGGTTTCGACCCTGGGTTAGTGCTA: 7.6 z-score
TTAGATTACGGGACTGGATTAGTGCTA: -0.418 z-score
TCATTTCTGTGTCACAGACTGTGCTAG: 0.461 z-score
TTCTTTTTTTCTTTTATTAGGTGCTAG: 2 z-score
AGCTATCACTATTCTAGGGAAGTGCTA: 0.3 z-score
TAAGGTTTCGGACTGGGTTAGTGCTAG: 5.09 z-score
TTAGATCTCAGTTTCGATTCGTGCTAG: 7.62 z-score
GACGGTATCAGGACTGGGGACGTGCTA: 0.909 z-score
TTAGGTTTCGGGTTTCGGTGAGTGCTA: 11.3 z-score
GACGGTATCGGGACTGGGAACGTGCTA: 3.06 z-score
GACGGTATCTGGACTGGGGACGTGCTA: 0.488 z-score

Repeated from above (sample 3):
ATATTCTC: -0.213
CGAATGGA: -0.22
GGTACTCA: -0.104
CGCGTGAG: 0.308
GTTAATGA: -0.279
AGATACCG: 0.191
ACAGACCA: -0.301
